Experimental data pooled from the literature.
Lines come from different studies, so protocols differ.
RPS6KA3: Ribosomal protein S6 kinase alpha-3 (RPS6KA3, Homo sapiens, UniProt P51812)
UniProt P51812, sequence (whole entry, looked up): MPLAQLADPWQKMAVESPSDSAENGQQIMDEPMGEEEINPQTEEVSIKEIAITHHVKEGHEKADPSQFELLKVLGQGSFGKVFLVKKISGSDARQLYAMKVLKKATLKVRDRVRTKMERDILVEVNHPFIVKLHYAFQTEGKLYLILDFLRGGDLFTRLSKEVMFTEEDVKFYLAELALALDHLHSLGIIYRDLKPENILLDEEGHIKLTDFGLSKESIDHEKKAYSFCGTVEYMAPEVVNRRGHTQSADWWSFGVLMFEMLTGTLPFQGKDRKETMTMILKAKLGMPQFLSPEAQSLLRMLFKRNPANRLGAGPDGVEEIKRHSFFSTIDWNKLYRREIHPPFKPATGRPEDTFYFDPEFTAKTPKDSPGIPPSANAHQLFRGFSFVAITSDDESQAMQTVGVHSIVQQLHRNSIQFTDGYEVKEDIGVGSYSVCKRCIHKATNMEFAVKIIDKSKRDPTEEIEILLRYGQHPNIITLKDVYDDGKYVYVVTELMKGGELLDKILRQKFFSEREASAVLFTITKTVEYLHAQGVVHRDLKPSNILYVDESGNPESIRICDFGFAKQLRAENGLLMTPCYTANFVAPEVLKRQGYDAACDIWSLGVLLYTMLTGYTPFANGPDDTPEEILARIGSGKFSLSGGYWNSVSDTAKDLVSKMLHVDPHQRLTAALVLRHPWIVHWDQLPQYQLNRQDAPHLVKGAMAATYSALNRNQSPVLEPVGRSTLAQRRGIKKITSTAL
RPS6KA3 N-terminal kinase domain: Ribosomal protein S6 kinase alpha-3, N-terminal kinase domain (RPS6KA3, Homo sapiens, UniProt P51812)

Structure (SMILES) | target | test | system | setting | scale | endpoint | value
CS(C)(=O)=Nc1ccc(-c2ccc(-c3nc4cc(O[C@@H]5CO[C@H]6[C@@H]5OC[C@H]6O)[nH]c4cc3F)cc2)cc1 | RPS6KA3 | enzyme activity, inhibitor | – | 10 µM | – | inhibition | -3%
CN(C)[C@H]1C[C@@]23CC[C@@]4(O2)C(=CC[C@]2(C)[C@@H](c5ccc6ccncc6c5)CC[C@H]24)C=C3[C@@H](O)[C@@H]1O | Ribosomal protein S6 kinase alpha-3, C-terminal kinase domain (RPS6KA3, Homo sapiens, UniProt P51812) | ATP probe labelling, inhibitor, KiNativ profiling | – | 0.1 µM | – | inhibition | -7.8%
C=CC(=O)Nc1cc(-c2nn(C3CCC(N4CCN(C(C)=O)CC4)CC3)c3ncnc(N)c23)ccc1Oc1ccccc1 (stereo not drawn) | RPS6KA3 N-terminal kinase domain | inhibitor, KiNativ profiling | biochemical | 2 µM | – | inhibition | -4.6%
CCOC(=O)[C@@H]1Cc2c(cc([N+](=O)[O-])cc2[N+](=O)[O-])[C@H](O)[C@]12C(=O)Nc1ccc(Br)cc12 | RPS6KA3 | binding, competition with immobilised ligand | – | 0.1 µM | – | remaining binding | 84%
CC(C)[C@H]1NC(=O)C[C@H]2/C=C/CCSSC[C@@H](NC1=O)C(=O)N[C@H](Cc1cccc3ccccc13)C(=O)NCC(=O)O2 | RPS6KA3 | enzyme activity, inhibitor | – | 10 µM | – | inhibition | 1.4%
O=C1NC(=O)c2c1c1cc(F)c[n+]3c1c1c2c2cc(O)ccc2[n]1[Ru-4]312([N]=C=S)[S+]3CC[S+]1CC[S+]2CC3 (stereo not drawn) | RPS6KA3 | enzyme activity | – | 100 nM, human enzyme, added: 10 µM ATP | reference: untreated | remaining activity | 6%
C[C@H](NCc1ccc(-c2ccc(C(F)(F)F)cc2)cc1)C(N)=O | RPS6KA3 | cell-free assay, competition with immobilised ligand | – | 1 µM | – | inhibition | 0%
Nc1ccc(/C=C/C(=O)N2CCc3c(oc4c(-c5ccc(F)cc5)cc(-c5ccc(C(=O)N6CCC(F)(F)CC6)cn5)cc34)C2)cn1 | RPS6KA3 N-terminal kinase domain | binding, competition with immobilised ligand | – | 1 µM | – | remaining binding | 100%
O=C(N[C@@H]1c2ccccc2C[C@H]1N1CCCC1)c1ccc(-c2ccnc3[nH]ccc23)nc1 | RPS6KA3 N-terminal kinase domain | binding, competition with immobilised ligand | – | 3 µM | – | remaining binding | 26%

Some of these lines once more:
Structure (SMILES) | target | test | system | setting | scale | endpoint | value
Nc1ccc(/C=C/C(=O)N2CCc3c(oc4c(-c5ccc(F)cc5)cc(-c5ccc(C(=O)N6CCC(F)(F)CC6)cn5)cc34)C2)cn1 | RPS6KA3 N-terminal kinase domain | binding, competition with immobilised ligand | – | 1 µM | – | remaining binding | 100%
